Published values from different studies.
± marks the error that the study gave.
Target: Cholinesterase (BCHE, Equus caballus, UniProt P81908)
Chain of UniProt P81908 (whole entry, looked up): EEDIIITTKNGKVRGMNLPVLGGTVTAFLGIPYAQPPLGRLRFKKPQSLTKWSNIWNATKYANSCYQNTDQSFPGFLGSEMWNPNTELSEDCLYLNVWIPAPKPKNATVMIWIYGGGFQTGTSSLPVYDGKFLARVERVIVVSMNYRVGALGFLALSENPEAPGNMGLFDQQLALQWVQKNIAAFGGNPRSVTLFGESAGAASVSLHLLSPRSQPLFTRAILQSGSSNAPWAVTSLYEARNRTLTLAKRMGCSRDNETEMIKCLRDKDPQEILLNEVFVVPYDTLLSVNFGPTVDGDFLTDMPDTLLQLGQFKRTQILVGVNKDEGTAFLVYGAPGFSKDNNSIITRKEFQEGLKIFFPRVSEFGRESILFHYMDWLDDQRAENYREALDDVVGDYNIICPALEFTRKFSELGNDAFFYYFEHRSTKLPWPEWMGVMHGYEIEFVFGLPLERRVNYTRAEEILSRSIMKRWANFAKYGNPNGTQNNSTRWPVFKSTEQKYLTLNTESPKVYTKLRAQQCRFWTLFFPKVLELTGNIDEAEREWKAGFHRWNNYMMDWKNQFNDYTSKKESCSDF
Mode: inhibitor

Structure (SMILES) = Cc1ccc2c(Nc3ccc4ccccc4n3)c3c(nc2c1)CCCC3; read-out = enzyme activity; concentration = 100 µM; quantity = inhibition; result = -49.2%
Structure (SMILES) = COC(=O)C1=CO[C@@H](OC(C)=O)[C@@H]2C(Cn3cc(CCCO[Si](C(C)C)(C(C)C)C(C)C)nn3)=CC[C@H]12; medium = horse serum BuChE; concentration = 10000 µM; quantity = inhibition; result = 10.7 ± 0.15%
Structure (SMILES) = COc1ccnc(Nc2c3c(nc4cc(C)ccc24)CCCC3)c1; read-out = enzyme activity; concentration = 50 µM; quantity = inhibition; result = < -200%
Structure (SMILES) = O=C(/C=C/c1ccc(F)cc1)c1cc2ccccc2oc1=O; read-out = enzyme activity; concentration = 10 µM; quantity = remaining activity; result = 75%
Structure (SMILES) = COC(=O)C1=CO[C@@H](OC(C)=O)[C@@H]2C(Cn3cc(CN4C(=O)c5ccccc5C4=O)nn3)=CC[C@H]12; medium = horse serum BuChE; concentration = 10000 µM; quantity = inhibition; result = 78.64 ± 0.1%
Structure (SMILES) = O=C(/C=C/c1cccc(F)c1)c1cc2ccccc2oc1=O; read-out = enzyme activity; concentration = 10 µM; quantity = remaining activity; result = 55.7%
Structure (SMILES) = Cc1cccc(Nc2c3c(nc4ccccc24)CCC(C)C3)n1 (centres unmarked); read-out = enzyme activity; concentration = 50 µM; quantity = inhibition; result = -175%
Structure (SMILES) = O=C(/C=C/c1cccc(Br)c1)c1cc2ccccc2oc1=O; read-out = enzyme activity; concentration = 10 µM; quantity = remaining activity; result = 63.2%
Structure (SMILES) = COC(=O)C1=CO[C@@H](OC(C)=O)[C@@H]2C(Cn3cc(CCO[Si](c4ccccc4)(c4ccccc4)C(C)(C)C)nn3)=CC[C@H]12; medium = horse serum BuChE; concentration = 10000 µM; quantity = inhibition; result = 1.79 ± 0.17%
Structure (SMILES) = COc1cc2c(cc1OC(C)=O)C1Cc3ccc(OC(C)=O)c(OC)c3CN1CC2 (centres unmarked); read-out = enzyme activity; technique = Ellman; concentration = up to 0.1 µg/mL; quantity = IC50; result = inactive
Structure (SMILES) = CCCCCCCCCCOCc1cn(CC2=CC[C@@H]3C(C(=O)OC)=CO[C@@H](O)[C@H]23)nn1; medium = horse serum BuChE; concentration = 10000 µM; quantity = inhibition; result = 25.04 ± 0.23%
Structure (SMILES) = O=C(/C=C/c1ccccc1)c1cc2ccccc2oc1=O; read-out = enzyme activity; concentration = 10 µM; quantity = remaining activity; result = 66.1%
Structure (SMILES) = COC(=O)C1=CO[C@@H](O)[C@@H]2C(Cn3cc(C(O)(c4ccccc4)c4ccccc4)nn3)=CC[C@H]12; read-out = enzyme activity; technique = Ellman Lineweaver-Burk; with = butyrylthiocholine iodide; quantity = Ki; result = 100 µM
Structure (SMILES) = O=C(/C=C/c1ccc(Br)cc1)c1cc2ccccc2oc1=O; read-out = enzyme activity; concentration = 10 µM; quantity = remaining activity; result = 85.4%
Structure (SMILES) = c1ccc2ncc(Nc3c4c(nc5ccccc35)CCCC4)cc2c1; read-out = enzyme activity; concentration = 100 µM; quantity = inhibition; result = -44.5%
Structure (SMILES) = O=CN1CCc2cc3c(c4c2C1Cc1ccccc1-4)OCO3 (single isomer, unassigned; (-)); read-out = enzyme activity; technique = Ellman; concentration = up to 0.1 µg/mL; quantity = IC50; result = inactive
Structure (SMILES) = Cc1ccnc(Nc2c3c(nc4ccccc24)CCC(C)C3)c1 (centres unmarked); read-out = enzyme activity; concentration = 50 µM; quantity = inhibition; result = < -200%
Structure (SMILES) = COC(=O)C1=CO[C@@H](OC(C)=O)[C@@H]2C(Cn3cc(-c4ccc(OC)cc4)nn3)=CC[C@H]12; medium = horse serum BuChE; concentration = 10000 µM; quantity = inhibition; result = 34.97 ± 0.26%
Structure (SMILES) = Clc1ccc2nc3c(c(Nc4ccc5ccccc5n4)c2c1)CCCC3; read-out = enzyme activity; concentration = 100 µM; quantity = inhibition; result = -56%
Structure (SMILES) = COc1cc2c(cc1O)[C@@H]1Cc3ccc(OC(C)=O)c(OC)c3CN1CC2; read-out = enzyme activity; technique = Ellman; concentration = up to 0.1 µg/mL; quantity = IC50; result = inactive

Excerpt of the above:
Structure (SMILES) = Cc1cccc(Nc2c3c(nc4ccccc24)CCC(C)C3)n1 (centres unmarked); read-out = enzyme activity; concentration = 50 µM; quantity = inhibition; result = -175%
Structure (SMILES) = O=C(/C=C/c1cccc(Br)c1)c1cc2ccccc2oc1=O; read-out = enzyme activity; concentration = 10 µM; quantity = remaining activity; result = 63.2%
